Results pooled from the literature.
Each line is one published result; not all experiments were run side by side. Values joined by “and” are separate records of one study, mostly repeats; a detail may differ. Numbers after ± are the reported error.
Chain of UniProt P48067 (whole entry, looked up): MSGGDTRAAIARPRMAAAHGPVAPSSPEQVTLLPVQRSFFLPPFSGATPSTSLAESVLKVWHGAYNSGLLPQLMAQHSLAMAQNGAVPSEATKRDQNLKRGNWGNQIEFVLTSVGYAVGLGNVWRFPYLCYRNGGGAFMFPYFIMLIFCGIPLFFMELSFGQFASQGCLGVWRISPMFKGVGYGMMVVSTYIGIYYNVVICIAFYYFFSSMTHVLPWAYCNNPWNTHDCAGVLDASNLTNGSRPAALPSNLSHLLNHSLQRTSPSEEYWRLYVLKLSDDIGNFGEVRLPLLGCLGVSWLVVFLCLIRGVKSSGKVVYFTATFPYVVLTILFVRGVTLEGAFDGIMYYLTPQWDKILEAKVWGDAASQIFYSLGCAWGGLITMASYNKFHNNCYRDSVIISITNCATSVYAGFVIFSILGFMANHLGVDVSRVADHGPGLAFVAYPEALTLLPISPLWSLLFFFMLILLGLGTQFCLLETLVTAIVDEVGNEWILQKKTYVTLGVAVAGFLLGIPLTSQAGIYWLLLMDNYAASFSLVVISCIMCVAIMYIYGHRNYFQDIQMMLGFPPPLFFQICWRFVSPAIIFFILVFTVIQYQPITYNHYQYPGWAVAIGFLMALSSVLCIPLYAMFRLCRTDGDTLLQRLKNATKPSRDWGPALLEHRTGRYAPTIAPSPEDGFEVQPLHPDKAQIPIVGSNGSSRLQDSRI
Chain of UniProt Q64663 (whole entry, unmodified, looked up): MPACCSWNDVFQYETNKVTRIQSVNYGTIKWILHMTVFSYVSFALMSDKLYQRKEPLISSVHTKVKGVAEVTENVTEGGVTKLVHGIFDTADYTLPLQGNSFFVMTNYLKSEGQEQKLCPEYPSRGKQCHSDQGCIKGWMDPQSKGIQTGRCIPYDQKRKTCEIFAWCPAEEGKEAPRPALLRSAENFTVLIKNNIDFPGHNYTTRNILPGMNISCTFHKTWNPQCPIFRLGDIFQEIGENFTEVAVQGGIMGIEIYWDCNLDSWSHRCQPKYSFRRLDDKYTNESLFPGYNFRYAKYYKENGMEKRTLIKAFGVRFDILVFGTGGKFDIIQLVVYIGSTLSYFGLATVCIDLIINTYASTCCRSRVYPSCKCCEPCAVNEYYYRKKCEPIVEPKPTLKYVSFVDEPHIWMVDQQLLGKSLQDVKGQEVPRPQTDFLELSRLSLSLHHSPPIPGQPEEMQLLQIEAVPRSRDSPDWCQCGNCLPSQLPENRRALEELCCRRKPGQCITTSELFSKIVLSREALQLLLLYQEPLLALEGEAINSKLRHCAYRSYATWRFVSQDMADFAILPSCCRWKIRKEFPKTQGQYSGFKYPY

Substance	tested on	test	test system	setting	scale	measurement	value
EKPIDSETKM	human MAGI1-2/6 PDZ construct (MBP fusion)	automated holdup	peptide, crude extract	concentration not given, uncorrected, unit not given	relative to: biotin control resin, higher = stronger binding	binding intensity	0.785
colistin	Pseudomonas aeruginosa	–	clinical isolate RKI 462/13	–	–	MIC	≤ 1 µg/mL
GSGAGIESNV	human MAGI1-2/6 PDZ construct (MBP fusion)	automated holdup	peptide, crude extract	concentration not given, corrected by standard peak, unit not given	relative to: biotin control resin, higher = stronger binding	binding intensity	-0.0908
maraviroc	HIV-1 ADA	viral replication, qPCR	HIV-infected mice, brain	ip, 120 mg/kg twice daily, 3 weeks post-infection, normalized to CD45+ cells	relative to: untreated HIV-infected mice	HIV-1 gag decrease	336 fold
TASPAKETSF	human MAGI1-3/6 PDZ construct (MBP fusion)	automated holdup	peptide, purified PDZ protein	concentration not given, unit not given	relative to: biotin control resin, higher = stronger binding	binding intensity	-0.201
hemoglobin beta	–	co-immunoprecipitation	human plasma	unit not given, with: Band 3 peptide 1-56 bait	relative to: negative control	co-IP enrichment	1.75
LVHYTHCGSLGV	Epstein-Barr virus	–	peptide, EBV-infected humanized B-NDG mice	20 mg/kg, day 14	–	body weight	23.5 g and 22.4 g
ACEQNPIYWARYADWLFTTPLLLLDLALLVDADEGT	–	ex vivo fluorescence imaging	peptide, BALB/c mice, 4T1 tumour-bearing, liver	intravenous, 5 nmol, 4 h post-injection	higher = more uptake	mean fluorescence intensity	1980 ± 27.9 a.u.
MTVCNASQRQAHAQATAVSL	MDA-MB-231	phage binding	peptide	–	relative to: targeting over control phage	selectivity ratio	0.94 ± 0.26
BzATP	P2X purinoceptor 7 (P2rx7, Rattus norvegicus, UniProt Q64663)	ion current, agonist, two-electrode voltage clamp	Xenopus laevis oocytes	3.70 µM	relative to: highest concentration response	normalized current	0.9
GEMVGQARILAQATSDLVNAIKDA	vinculin head domain Vd1	complex rupture, AFM single-molecule force spectroscopy	peptide	traces traces, C-terminal pulling, 800 nm/s	–	rupture force FWHM upper side	26 pN
triosephosphate isomerase	–	co-immunoprecipitation	human RBC cytosol	DSSO crosslinker, unit not given, with: Band 3 peptide 1-56 bait	relative to: negative control	co-IP enrichment	572
GLGQWIAQA	Jurkat T cells expressing 1G4 TCR	NFAT-eGFP reporter, flow cytometry	peptide	concentration not given, HLA-A*02:01 NY-ESO system	–	reporter activation	0.22%
Peginesatide	UT7/EPO	RT-qPCR, measured: CD80	–	concentration not given, 90 min	relative to: vehicle	mRNA fold induction	2.3 fold
11-deoxycorticosterone	CYP11B2 (human)	substrate binding, stopped-flow global kinetic fitting	purified enzyme	model, 4-state CS, linear, with: 40-fold excess adrenodoxin	–	Kd	5.2 µM
ALLQWVSQV	Jurkat T cells expressing 1G4 TCR	NFAT-eGFP reporter, flow cytometry	peptide	concentration not given, HLA-A*02:01 NY-ESO system	–	reporter activation	70.9%
methyl-β-cyclodextrin	SLC6A9 (Homo sapiens, UniProt P48067)	transport activity, [3H]glycine uptake	–	2.5 mg/mL, 1 min, with: glycine 37.5 µM	higher = more transport	glycine uptake rate	14.1 a.u. and 14.2 a.u. and 14.3 a.u. and 14.4 a.u.
Ac-LRKLRKRLLRDWLKAFYDKVAEKLKEAF-NH2 (N-acetyl, C-amide)	THP-1-derived macrophages	–	peptide	20 µg/mL, 4 h	relative to: untreated control	newly synthesized apoE secretion	4 fold
SLLQWTTQV	Jurkat T cells expressing 1G4 TCR	NFAT-eGFP reporter, flow cytometry	peptide	concentration not given, HLA-A*02:01 NY-ESO system	–	reporter activation	68.7%
STVQLIMQL	HLA class I histocompatibility antigen, A alpha chain, allele A*24:02 (Homo sapiens, UniProt P04439)	conformational ELISA	peptide	concentration not given	relative to: positive control peptide, direction not given	binding score	8.3%
Polymyxin B	Staphylococcus aureus	DiSC3(5) fluorescence	–	concentration not given, 45 min	higher = more depolarisation	membrane depolarisation	746 a.u. and 541 a.u. and 587 a.u.
sacituzumab	canine TROP2	binding, bio-layer interferometry	–	–	–	Kd	no binding
GLGQWVPQV	Jurkat T cells expressing 1G4 TCR	NFAT-eGFP reporter, fluorescence microscopy	peptide	concentration not given, HLA-A*02:01 NY-ESO system	–	reporter activation	0.0041%

Substance	tested on	test	test system	setting	scale	measurement	value
LMPFGSLLDYV	HLA class I histocompatibility antigen, A alpha chain, allele A*02:01 (Homo sapiens, UniProt P04439)	complex stability, off-rate	peptide	37 °C	–	half-life of peptide-HLA complex	89.1 h
human delta-aminolevulinic acid dehydratase	–	co-immunoprecipitation	human RBC cytosol	DMTMM crosslinker, unit not given, with: Band 3 peptide 1-56 bait	relative to: negative control	co-IP enrichment	8130
ACDDQNPWRAYLDLLFPTDTLLLDLLW	–	ex vivo fluorescence imaging	peptide, BALB/c mice, 4T1 tumour-bearing, kidney	intravenous, 5 nmol, 24 h post-injection	higher = more uptake	mean fluorescence intensity	1290 ± 253 a.u.
epoetin alfa	UT7/EPO	microarray, measured: THBS1 mRNA (probe set 235086_at)	–	5 U/mL, 90 min	relative to: vehicle	mRNA level	2.8 fold
QDEKVKESYV	human SCRIB PDZ3-4 tandem (MBP fusion)	surface plasmon resonance	peptide	concentration not given	higher = stronger binding	normalised SPR binding response	60.2 normalised RU
human retinal dehydrogenase 1	–	co-immunoprecipitation	human RBC membrane	DMTMM crosslinker, unit not given, with: Band 3 peptide 1-56 bait	relative to: negative control	co-IP enrichment	0
QSARYRDTEL	human MAGI1-3/6 PDZ construct (MBP fusion)	automated holdup	peptide, crude extract	concentration not given, uncorrected, unit not given	relative to: biotin control resin, higher = stronger binding	binding intensity	0.105
tripeptidyl peptidase 2	–	co-immunoprecipitation	human RBC membrane	DMTMM crosslinker, unit not given, with: Band 3 peptide 1-56 bait	relative to: negative control	co-IP enrichment	223
NPDALPETLV	human MAGI1-2/6 PDZ construct (MBP fusion)	automated holdup	peptide, purified PDZ protein	concentration not given, unit not given	relative to: biotin control resin, higher = stronger binding	binding intensity	0.182
human HSC70	–	co-immunoprecipitation	human RBC membrane	unit not given, with: Band 3 peptide 1-56 bait	relative to: negative control	co-IP enrichment	0
SLLQWVSMV	Jurkat T cells expressing 1G4 TCR	NFAT-eGFP reporter, fluorescence microscopy	peptide	concentration not given, HLA-A*02:01 NY-ESO system	–	reporter activation	0.00797%
SEKHFRETEV	human MAGI1-3/6 PDZ construct (MBP fusion)	automated holdup	peptide, crude extract	concentration not given, corrected by standard peak, unit not given	relative to: biotin control resin, higher = stronger binding	binding intensity	0.29
CAGATACTCT	Salmonella enterica Typhimurium	RNA-seq, measured: pipB2 mRNA	peptide, SL1344	5 µM, 15 min	relative to: water control	log2 fold change	2.66
RLGQWIAQA	Jurkat T cells expressing 1G4 TCR	NFAT-eGFP reporter, flow cytometry	peptide	concentration not given, HLA-A*02:01 NY-ESO system	–	reporter activation	0.56%
milbemycin oxime	Saccharomyces cerevisiae	cell growth	Pdr5 deleted, Cdr1 overexpressed	2^-5.966 µg/mL, with: fluconazole 1 µg/mL	–	OD600	0.971 and 1.01 and 1.02
GLLEWVSQV	Jurkat T cells expressing 1G4 TCR	NFAT-eGFP reporter, flow cytometry	peptide	concentration not given, HLA-A*02:01 NY-ESO system	–	reporter activation	0.15%
UBE2I	–	co-immunoprecipitation	human plasma	no crosslinker, unit not given, with: Band 3 peptide 1-56 bait	relative to: negative control	co-IP enrichment	0
ILEAAKSIAAATSALVKAASAAQRE	vinculin head domain Vd1	complex rupture, AFM single-molecule force spectroscopy	peptide	single traces, C-terminal pulling, 800 nm/s	–	mean rupture force	49.2 pN
TCP-1 alpha	–	co-immunoprecipitation	human RBC membrane	unit not given, with: Band 3 peptide 1-56 bait	relative to: negative control	co-IP enrichment	0
GSGAGICTIV	human MAGI1-3/6 PDZ construct (MBP fusion)	automated holdup	peptide, crude extract	concentration not given, uncorrected, unit not given	relative to: biotin control resin, higher = stronger binding	binding intensity	0.0181
GLAQWISGV	Jurkat T cells expressing 1G4 TCR	NFAT-eGFP reporter, flow cytometry	peptide	concentration not given, HLA-A*02:01 NY-ESO system	–	reporter activation	0.19%
cotadutide	–	metabolomics, measured: hepatic arginine	ob/ob mice on AMLN diet, NASH model, liver	dose not given	–	metabolite level	0.71 ± 0.14 scaled intensity

Repeated from above:
Substance	tested on	test	test system	setting	scale	measurement	value
triosephosphate isomerase	–	co-immunoprecipitation	human RBC cytosol	DSSO crosslinker, unit not given, with: Band 3 peptide 1-56 bait	relative to: negative control	co-IP enrichment	572
GLGQWIAQA	Jurkat T cells expressing 1G4 TCR	NFAT-eGFP reporter, flow cytometry	peptide	concentration not given, HLA-A*02:01 NY-ESO system	–	reporter activation	0.22%
Peginesatide	UT7/EPO	RT-qPCR, measured: CD80	–	concentration not given, 90 min	relative to: vehicle	mRNA fold induction	2.3 fold
11-deoxycorticosterone	CYP11B2 (human)	substrate binding, stopped-flow global kinetic fitting	purified enzyme	model, 4-state CS, linear, with: 40-fold excess adrenodoxin	–	Kd	5.2 µM
